Experimental data from different studies.
A part holds a random share of what one study measured. Changes are numbered by the printed parent chain.

Sample 1 — method: DHFR PCA, deep sequencing; sample: yeast; with: (+)-ABA 0 µM; baseline: wild-type fitted maximum; direction: higher = stronger binding
Target: ABI1, truncated, D143A, DHFR fusion (Arabidopsis thaliana)
Notes: methotrexate growth selection, single substitutions
Parent: PYL1, truncated, DHFR fusion (Arabidopsis thaliana); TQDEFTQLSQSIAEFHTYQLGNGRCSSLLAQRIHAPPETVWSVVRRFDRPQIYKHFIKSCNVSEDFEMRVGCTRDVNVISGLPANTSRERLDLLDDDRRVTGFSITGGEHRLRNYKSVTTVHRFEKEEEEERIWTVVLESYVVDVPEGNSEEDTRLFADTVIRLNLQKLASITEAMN; partner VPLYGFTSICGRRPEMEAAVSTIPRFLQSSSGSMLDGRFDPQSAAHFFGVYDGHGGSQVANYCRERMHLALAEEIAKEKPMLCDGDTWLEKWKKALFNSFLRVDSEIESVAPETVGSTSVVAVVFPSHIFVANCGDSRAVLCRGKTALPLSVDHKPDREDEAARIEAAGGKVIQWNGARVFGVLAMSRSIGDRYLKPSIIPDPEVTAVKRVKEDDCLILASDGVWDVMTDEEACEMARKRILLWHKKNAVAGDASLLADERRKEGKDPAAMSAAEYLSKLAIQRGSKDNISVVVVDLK
| Substitution | relative binding score [%] |
| --- | --- |
| H110S | 43.1 |
| D65M | 7.86 |
| H122S | -4.49 |
| P146H | -3.35 |
| E127G | 35.9 |
| E4I | 37.3 |
| N22A | 41.7 |
| T101E | -7.65 |
| R132Q | 39.2 |
| E67R | 9.21 |

Sample 2 — method: protein-binding microarray; form: double-stranded DNA, one strand shown; sample: in vitro; concentration: 2540 nM top; notes: 60-bp whole probe; with: salmon DNA 0.4 mg/ml; baseline: random background probes; direction: higher = stronger binding; shared flanks, not repeated: GCCTAGCAC … GTCTTGATTCGCTTGACGCTGCTG
Target: Interferon regulatory factor 3, full length, phosphomimetic (IRF3, Homo sapiens, UniProt Q14653, residues 1-427, S386D/S396D/S398D/S402D/T404D/S405D)
Target sequence (chain): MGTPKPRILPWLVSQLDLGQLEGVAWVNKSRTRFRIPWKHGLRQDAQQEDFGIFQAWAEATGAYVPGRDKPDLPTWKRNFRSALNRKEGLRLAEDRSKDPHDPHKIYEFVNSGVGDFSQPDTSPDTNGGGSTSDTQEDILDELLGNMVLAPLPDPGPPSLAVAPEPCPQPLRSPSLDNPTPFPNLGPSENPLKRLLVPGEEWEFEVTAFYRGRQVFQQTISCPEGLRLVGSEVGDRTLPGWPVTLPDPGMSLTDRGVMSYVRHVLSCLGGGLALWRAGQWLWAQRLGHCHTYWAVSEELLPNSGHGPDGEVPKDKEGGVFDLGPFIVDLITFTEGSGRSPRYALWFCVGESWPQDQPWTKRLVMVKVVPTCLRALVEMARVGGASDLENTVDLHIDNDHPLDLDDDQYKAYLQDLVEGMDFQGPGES
| Strand | fitted relative affinity |
| --- | --- |
| TTAGGTTTGCTTATCCTTTAGTGCTAG | 0.91 z-score |
| TACTGGACTGGGGTTTCCCGGTGCTAG | -0.453 z-score |
| GACAATCTCAGACTGGAGACGTGCTAG | 0.194 z-score |
| TTAGATCTCAGACTGGATTCGTGCTAG | -0.00729 z-score |
| TAAGAACTGAGTATCGATTAGTGCTAG | 0.131 z-score |
| TGAGTTTTCCTTCATGTGCCGTGCTAG | 2.4 z-score |
| GACGGACGGGACTTTCGGGACGTGCTA | 0.0407 z-score |
| TCACTTCTAGACTTCTCACTGTGCTAG | 1.03 z-score |
| GACGGTATCGGGGTTCGGGACGTGCTA | 0.922 z-score |
| TCAATTTTCTGAATGTCACTGTGCTAG | 1.41 z-score |
| ATAGGACTGGGACTGGGTTAGTGCTAG | -0.942 z-score |
| TCAAATCTCTCATGTTACACTGTGCTA | 0.269 z-score |
| CTAGGTTTCGGTTCCGGTTAGTGCTAG | 10.3 z-score |

Sample 3 — method: aptamer microarray, sandwich; form: DNA with 2'F-ANA; sample: in vitro; concentration: 200 nM; with: Cy3 exosite-II aptamer, 400 nM; direction: higher = stronger binding; strand: GGTTGGTGTGGTTGG
Target: Prothrombin, mature alpha-thrombin (F2, Homo sapiens, UniProt P00734)
Notes: whole 15-mer aptamer, many near background
| Modification | mean fluorescence intensity [a.u.] |
| --- | --- |
| 2'F-ANA at 1 3 5 10 11 12 | 47.7 |
| 2'F-ANA at 1 6 7 8 9 11 13 14 15 | 62 |
| 2'F-ANA at 2 4 5 6 8 9 11 12 13 15 | 72.3 |
| 2'F-ANA at 5 6 7 10 13 15 | 46.7 |
| 2'F-ANA at 1 3 4 5 9 10 11 12 13 15 | 52.8 |
| 2'F-ANA at 2 4 5 6 7 8 9 10 11 | 50.2 |
| 2'F-ANA at 2 6 9 10 11 12 | 143 |
| 2'F-ANA at 2 3 6 7 9 10 15 | 342 |
| 2'F-ANA at 1 2 3 4 6 7 8 10 11 12 13 14 | 53.5 |
| 2'F-ANA at 3 4 6 8 9 10 14 | 178 |
| 2'F-ANA at 1 3 5 10 | 43.4 |
| 2'F-ANA at 1 2 4 8 11 15 | 133 |
| 2'F-ANA at 6 7 8 9 10 12 14 | 121 |
| 2'F-ANA at 2 3 4 6 7 8 10 11 12 | 246 |
| 2'F-ANA at 5 7 10 12 13 14 | 43.8 |
| 2'F-ANA at 2 3 6 7 9 14 15 | 323 |

Sample 4 — method: protein binding microarray; form: double-stranded DNA, one strand shown; sample: in vitro; concentration: not given; baseline: not given; direction: higher = stronger binding
Target: Histone acetyltransferase KAT6A, winged helix 2, GST fusion (KAT6A, Homo sapiens, UniProt Q92794, residues 85-181)
Notes: 8-mer, flanks averaged, mean of 2 arrays, mostly near background
Construct (chain): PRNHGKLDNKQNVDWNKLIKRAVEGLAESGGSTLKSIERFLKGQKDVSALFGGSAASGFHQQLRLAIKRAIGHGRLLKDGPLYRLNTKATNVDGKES
| Strand | E-score |
| --- | --- |
| CGGCCTAA | 0.00729 |
| GACTATTA | -0.0507 |
| GCGGTCCA | 0.158 |
| ACGGCTCC | 0.089 |
| CCGCAATA | 0.00551 |
| TCATGAAA | -0.0394 |
| AGAGATCA | 0.026 |
| CTTCGCGC | 0.247 |
| GTGGCCAA | 0.0776 |
| CGGTGTAA | -0.0481 |
| ATCAGTTG | -0.127 |
| CGCTTAAA | -0.00793 |
| GACAGGTA | -0.0941 |
| CCATAAAG | 0.00687 |
| ATAAGGCG | 0.0292 |

Sample 5 — method: competition protein-binding microarray; form: double-stranded DNA, one strand shown; sample: in vitro; concentration: 2 µM; with: Cbf1 competitor, 0.05 µM; direction: higher = stronger binding; shared flanks, not repeated: … GTCTTGATTCGCTTGACGCTGCTG
Target: Phosphate system positive regulatory protein PHO4, full length, GST-tagged (PHO4, Saccharomyces cerevisiae, UniProt P07270, residues 1-312)
Notes: whole 60-bp probe, lowest competitor level
Target sequence (chain): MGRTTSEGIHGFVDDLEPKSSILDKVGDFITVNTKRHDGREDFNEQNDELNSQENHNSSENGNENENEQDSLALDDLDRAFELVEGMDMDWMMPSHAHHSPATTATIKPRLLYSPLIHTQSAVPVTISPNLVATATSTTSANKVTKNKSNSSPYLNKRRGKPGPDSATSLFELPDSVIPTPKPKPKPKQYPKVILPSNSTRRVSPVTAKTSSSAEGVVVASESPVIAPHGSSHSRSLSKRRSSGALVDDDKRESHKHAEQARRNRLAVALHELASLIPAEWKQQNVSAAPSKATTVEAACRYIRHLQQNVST
| Strand | fluorescence intensity |
| --- | --- |
| GGGATCAAGACCCATCTCGTGCTTTATACCCGGGTC | 8670 a.u. |
| CTTCTGTAAATTTGCTAGGTGGGTGGACGCGCCCCG | 3640 a.u. |
| CATACCCAACCTTTTCACGTGGGGTAAGATATTTGT | 16700 a.u. |
| AAGGCAATCAGGATGCACGTCGCCGTAAGATTGCAA | 6150 a.u. |
| AAAGCGGTAATTTGCGGTGTGGGTGCAGATATCTAT | 4900 a.u. |
| CGTCCTAGTGATTGGGAAGTGGGTGCCATGAGGAAG | 6970 a.u. |
| CTTTCCCGATCTTGCATGGTGGGTGTAGCACATTTG | 5500 a.u. |
| AGTACAGTCTTGGACAATGTGACAGGGACCCTTGAA | 4610 a.u. |
| CGCCATTACGACAATCACATGGTTGTTAAATCGCGG | 9000 a.u. |
| AAGTTAAAACCTGTTGTCGTGGGTAAATATGATAGT | 7720 a.u. |
| CTTCTGTAAATTTGATAGGTGGGTGGACGCGCCCCG | 4270 a.u. |
| AAAGCGGTAATTTTTCACGTGGAGTCAAATATCTAT | 13400 a.u. |

Sample 6 — method: RNA Bind-n-Seq; form: RNA; sample: in vitro; concentration: 200 nM; notes: whole 134-nt RNA, ends assumed; with: 150 mM KCl; baseline: input library; direction: higher = stronger binding
Target: Ras GTPase-activating protein-binding protein 1, full length (G3BP1, Homo sapiens, UniProt Q13283)
Sequence of UniProt Q13283 (whole entry, looked up): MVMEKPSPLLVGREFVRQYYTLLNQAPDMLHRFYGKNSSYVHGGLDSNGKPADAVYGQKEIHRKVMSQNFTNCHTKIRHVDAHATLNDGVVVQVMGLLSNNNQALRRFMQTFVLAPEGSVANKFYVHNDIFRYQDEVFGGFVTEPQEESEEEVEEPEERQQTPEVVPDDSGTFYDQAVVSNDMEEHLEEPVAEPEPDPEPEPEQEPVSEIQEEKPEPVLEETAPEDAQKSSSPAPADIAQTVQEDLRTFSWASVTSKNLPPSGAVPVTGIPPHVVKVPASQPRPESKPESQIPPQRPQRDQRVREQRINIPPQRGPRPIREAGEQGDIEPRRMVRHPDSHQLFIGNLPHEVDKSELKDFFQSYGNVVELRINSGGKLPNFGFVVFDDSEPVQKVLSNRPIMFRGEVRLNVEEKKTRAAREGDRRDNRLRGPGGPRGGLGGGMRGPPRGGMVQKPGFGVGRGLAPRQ
| Strand | log2 enrichment |
| --- | --- |
| GGGAGUUCUACAGUCCGACGAUCUCCUCAAGUCCUGUGCUACACAUCGUAUGUACCGAAUCGGAAAGGAGGAGGAAAGUAUUAUGUUACGCCGUUCGGAUCUGCACUUCCAGCUGGAAUUCUCGGGUGUCAAGG | -0.788 |
| GGGAGUUCUACAGUCCGACGAUCCAAGUCCUGUGCUACACAUCGUAUGUACCGAAUCGGUUUUGGUUUUGGGUUUUGGAAAGUAUUAUGUUACGCCGUUCGGAUCUGCACUUCUGGAAUUCUCGGGUGUCAAGG | -1.23 |
| GGGAGUUCUACAGUCCGACGAUCGCAGGAAGUAAAAACAAAUGGAAAUGCUUCGGAUAGGGGCAGGGGUGGGGGUUGCUAAGGAAAGGGUGGGAUGGGAGUGGGUAAAGAGUUUGGAAUUCUCGGGUGUCAAGG | 1.6 |
| GGGAGUUCUACAGUCCGACGAUCGAGCUGGAAGCUAUCAAAGCUCGAGUCAGGGAGAUGGAGGAAGAAGCUGAGAAGCUAAAGGAGCUACAGAACGAGGUAGAGAAGCAGAUGUGGAAUUCUCGGGUGUCAAGG | -0.451 |

A few entries again (sample 5):
| Strand | fluorescence intensity |
| --- | --- |
| GGGATCAAGACCCATCTCGTGCTTTATACCCGGGTC | 8670 a.u. |
| CTTCTGTAAATTTGCTAGGTGGGTGGACGCGCCCCG | 3640 a.u. |
| CATACCCAACCTTTTCACGTGGGGTAAGATATTTGT | 16700 a.u. |
| AAGGCAATCAGGATGCACGTCGCCGTAAGATTGCAA | 6150 a.u. |
| AAAGCGGTAATTTGCGGTGTGGGTGCAGATATCTAT | 4900 a.u. |
| CGTCCTAGTGATTGGGAAGTGGGTGCCATGAGGAAG | 6970 a.u. |
| CTTTCCCGATCTTGCATGGTGGGTGTAGCACATTTG | 5500 a.u. |
| AGTACAGTCTTGGACAATGTGACAGGGACCCTTGAA | 4610 a.u. |
| CGCCATTACGACAATCACATGGTTGTTAAATCGCGG | 9000 a.u. |
| AAGTTAAAACCTGTTGTCGTGGGTAAATATGATAGT | 7720 a.u. |
| CTTCTGTAAATTTGATAGGTGGGTGGACGCGCCCCG | 4270 a.u. |
| AAAGCGGTAATTTTTCACGTGGAGTCAAATATCTAT | 13400 a.u. |
